Results of several laboratories.
Numbers after ± are the reported error.

`CC[C@H](C)[C@H](NC(=O)[C@H](CCCCN)NC(=O)CNC(=O)[C@H](CC(C)C)NC(=O)[C@H](Cc1ccccc1)NC(=O)[C@H](CCCCN)NC(=O)[C@H](CO)NC(=O)[C@H](Cc1ccccc1)NC(=O)[C@H](Cc1c[nH]c2ccccc12)NC(=O)[C@H](CCC(N)=O)NC(=O)[C@@H](NC(=O)[C@H](Cc1ccccc1)NC(=O)CCCCCNC(=O)CN1CCN(CC(=O)O)CCN(CC(=O)O)CCN(CC(=O)O)CC1)C(C)C)C(=O)N[C@@H](CCC(=O)O)C(=O)N1CCC[C@H]1C(=O)N[C@H](CC(=O)O)C(=O)N[C@H](C(=O)N[C@@H](CO)C(=O)N[C@@H](CCC(N)=O)C(=O)N[C@H](C(=O)N[C@@H](CCC(N)=O)C(=O)N[C@@H](CC(=O)O)C(=O)N1CCC[C@H]1C(=O)N[C@@H](CC(N)=O)C(=O)N[C@@H](CC(=O)O)C(=O)N[C@@H](CCC(N)=O)C(=O)N[C@@H](Cc1ccc(O)cc1)C(=O)N[C@@H](CCC(=O)O)C(=O)N1CCC[C@H]1C(=O)N[C@@H](Cc1ccccc1)C(=O)O)C(C)C)C(C)C` [copper-64 labelled] has a tissue uptake of 0.32 ± 0.04 %ID/g (female mice, EMT6 tumour-bearing, muscle; 2 h, uncleavable control tracer, checkpoint inhibitor-treated).
For `Cc1ccccc1-c1ccc(-c2nc(-c3ccc(CN(C)CCCC(=O)O)c([18F])c3)no2)cc1C(F)(F)F`, the tissue uptake was 0.1 ± 0.02 %ID/g (Sprague Dawley rats, male, fat; 30 min).
With `CC(C)C[C@@H](NC(=O)[C@@H](CCCNC(=N)N)NC(=O)[C@@H](Cc1c[nH]cn1)NC(=O)[C@@H](Cc1c[nH]c2ccccc12)NC(=O)[C@@H](Cc1c[nH]cn1)NC(=O)[C@@H](Cc1ccccc1)NC(=O)[C@H](NC(=O)[C@@H](Cc1ccc(O)cc1)NC(=O)CNC(=O)CNC(=O)CCOCCOCCOCCNC(=O)CN1CCN(CC(=O)O)CCN(CC(=O)O)CC1)[C@H](C)O)C(=O)N[C@H](CC(N)=O)C(=O)N1CCC[C@@H]1C(=O)O` [gallium-68 labelled] the tissue uptake was 0.69 ± 0.3 %ID/g (C57BL/6 mice, male, heart; intravenous, 1.85 MBq, 60 min, together with: GP12 blocking).
For `CC[C@H](C)[C@H](NC(=O)[C@H](CCCNC(=N)N)NC(=O)[C@H](CCCCN)NC(=O)[C@H](Cc1ccc(O)cc1)NC(=O)[C@H](CC(=O)O)NC(=O)[C@H](C)NC(=O)CNC(=O)CCOCCOCCOCCNC(=O)CN1CCN(CC(=O)O)CCN(CC(=O)O)CCN(CC(=O)O)CC1)C(=O)N[C@H](C(=O)N[C@H](C(=O)N[C@@H](CCCCN)C(=O)N[C@H](C(=O)N[C@@H](CC(N)=O)C(N)=O)C(C)C)C(C)C)[C@@H](C)O` [copper-64 labelled], the tissue uptake was 0.543 ± 0.082 %ID/g (ex vivo gamma counting; C57BL/6J male mice, B16-F10 tumour, testis; intravenous, 1.85 MBq, 40 min).
The tissue uptake of `CSCC[C@H](NC(=O)CNC(=O)[C@H](CCCCN)NC(=O)[C@H](CC(C)C)NC(=O)[C@@H]1CCCN1C(=O)[C@H](CO)NC(=O)[C@H](Cc1c[nH]cn1)NC(=O)[C@H](Cc1c[nH]c2ccccc12)NC(=O)[C@H](CCCNC(=N)N)NC(=O)[C@H](CC(C)C)NC(=O)[C@H](CCCNC(=N)N)NC(=O)[C@H](Cc1c[nH]c2ccccc12)NC(=O)[C@H](CS)NC(=O)CCCCCNC(=O)CN1CCN(CC(=O)O)CCN(CC(=O)O)CCN(CC(=O)O)CC1)C(=O)O` [copper-64 labelled] is reported as 1.08 %ID/g (ex vivo biodistribution; BALB/c nude mice, ovaries; intravenous, dose not given, 18 h, Huh-7 tumour-bearing).
For `CN1Cc2cc(Cl)ccc2-n2c(nnc2C2CCN(c3cccc([18F])n3)CC2)C1`, the tissue uptake was 9.55 ± 3.79 %ID/g (C57BL/6 mouse male, small intestine; intravenous, 3.7 MBq, 5 min).
For `C[C@H](O)[C@@H](NC(=O)[C@H]1CCCN1C(=O)[C@@H](CCCCN)NC(=O)[C@@H](CO)NC(=O)[C@@H](Cc1ccc(O)cc1)NC(=O)[C@@H](CC(N)=O)NC(=O)CCOCCOCCOCCNC(=O)CN1CCN(CC(=O)O)CCN(CC(=O)O)CCN(CC(=O)O)CC1)C(=O)N[C@H](CC(=O)O)C(=O)N[C@H](CCCNC(=N)N)C(=O)N[C@H](CCC(N)=O)C(=O)N[C@H](Cc1ccc(O)cc1)C(=O)N[C@H](Cc1c[nH]cn1)C(=O)N[C@H](Cc1ccccc1)C(N)=O` [gallium-68 labelled], the tissue uptake was 0.13 ± 0.03 %ID/g (BALB/c nude mice U-87 MG tumour, pancreas; intravenous, 1.85 MBq, 2 h, radiolabelled).
`CCCC[C@H]1C(=O)N(C)[C@@H](CCCC)C(=O)N[C@@H](CCCNC(=O)CN2CCN(CC(=O)O)CCN(CC(=O)O)CCN(CC(=O)O)CC2)C(=O)N[C@H](C(=O)NCC(N)=O)CSCC(=O)N[C@@H](Cc2ccc(O)cc2)C(=O)N(C)[C@@H](C)C(=O)N[C@@H](CC(N)=O)C(=O)N2CCC[C@H]2C(=O)N[C@@H](Cc2c[nH]cn2)C(=O)N[C@@H](CC(C)C)C(=O)N(C)CC(=O)N[C@@H](Cc2c[nH]c3ccccc23)C(=O)N[C@@H](CO)C(=O)N[C@@H](Cc2c[nH]c3ccccc23)C(=O)N1C` [gallium-68 labelled] gave a tissue uptake of 0.89 ± 0.13 %ID/g (NOD/SCID mice, CHO-hPD-L1 xenograft, muscle; 60 min, PBS pretreatment).
`CCOP(=O)([O-])CNC(=O)CN1CCN(CC(=O)NCP(=O)([O-])OCC)CCN(CC(=O)NCP(=O)([O-])OCC)CCN(CC(=O)NCP(=O)([O-])OCC)CC1.[177Lu+3]` gave a tissue uptake of 0.005 ± 0.002 % injected dose/g (Sprague-Dawley rat, blood; intravenous (tail vein), dose not given, 2 h).

Repeated from above:
For `CC[C@H](C)[C@H](NC(=O)[C@H](CCCNC(=N)N)NC(=O)[C@H](CCCCN)NC(=O)[C@H](Cc1ccc(O)cc1)NC(=O)[C@H](CC(=O)O)NC(=O)[C@H](C)NC(=O)CNC(=O)CCOCCOCCOCCNC(=O)CN1CCN(CC(=O)O)CCN(CC(=O)O)CCN(CC(=O)O)CC1)C(=O)N[C@H](C(=O)N[C@H](C(=O)N[C@@H](CCCCN)C(=O)N[C@H](C(=O)N[C@@H](CC(N)=O)C(N)=O)C(C)C)C(C)C)[C@@H](C)O` [copper-64 labelled], the tissue uptake was 0.543 ± 0.082 %ID/g (ex vivo gamma counting; C57BL/6J male mice, B16-F10 tumour, testis; intravenous, 1.85 MBq, 40 min).
